Experimental data of several laboratories.
Values joined by “and” are separate records of one study, mostly repeats; a detail may differ. Numbers after ± are the reported error.
KDM1A: Lysine-specific histone demethylase 1A (KDM1A, Homo sapiens, UniProt O60341)
Rhomboid protease AarA: Rhomboid protease AarA (Providencia stuartii, UniProt P46116)
UniProt P46116, sequence (whole entry, looked up): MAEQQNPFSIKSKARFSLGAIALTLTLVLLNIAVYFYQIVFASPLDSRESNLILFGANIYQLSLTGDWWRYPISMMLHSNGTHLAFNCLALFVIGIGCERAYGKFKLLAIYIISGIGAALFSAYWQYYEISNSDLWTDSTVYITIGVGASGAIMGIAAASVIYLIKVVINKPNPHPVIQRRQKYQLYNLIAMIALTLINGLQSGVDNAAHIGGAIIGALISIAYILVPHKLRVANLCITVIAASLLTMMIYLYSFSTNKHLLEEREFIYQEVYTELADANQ
UniProt Q9HB29, sequence (whole entry, looked up): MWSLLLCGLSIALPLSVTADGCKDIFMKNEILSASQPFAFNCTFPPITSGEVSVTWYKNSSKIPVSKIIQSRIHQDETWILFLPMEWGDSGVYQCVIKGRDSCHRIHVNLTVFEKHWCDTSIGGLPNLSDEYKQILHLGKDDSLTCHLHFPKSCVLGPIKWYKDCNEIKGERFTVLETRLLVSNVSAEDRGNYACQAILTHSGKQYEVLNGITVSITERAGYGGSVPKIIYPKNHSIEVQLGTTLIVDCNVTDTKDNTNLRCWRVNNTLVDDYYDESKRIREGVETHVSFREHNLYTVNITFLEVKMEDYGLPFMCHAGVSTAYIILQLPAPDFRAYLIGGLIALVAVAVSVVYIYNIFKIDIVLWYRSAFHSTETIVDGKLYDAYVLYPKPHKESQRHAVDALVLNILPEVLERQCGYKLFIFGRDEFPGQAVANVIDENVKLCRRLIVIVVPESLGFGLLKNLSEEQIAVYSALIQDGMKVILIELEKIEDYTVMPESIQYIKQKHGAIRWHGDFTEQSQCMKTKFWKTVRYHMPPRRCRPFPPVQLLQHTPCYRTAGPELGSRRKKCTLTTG
UniProt P12295, sequence (whole entry, looked up): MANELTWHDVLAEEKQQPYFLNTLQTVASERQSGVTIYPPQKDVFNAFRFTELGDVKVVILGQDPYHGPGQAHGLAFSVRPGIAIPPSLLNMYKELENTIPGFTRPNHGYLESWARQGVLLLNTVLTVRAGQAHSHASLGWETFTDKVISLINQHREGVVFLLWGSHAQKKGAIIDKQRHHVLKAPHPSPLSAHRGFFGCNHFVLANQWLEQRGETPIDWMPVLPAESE
UniProt O75417, sequence (whole entry, looked up): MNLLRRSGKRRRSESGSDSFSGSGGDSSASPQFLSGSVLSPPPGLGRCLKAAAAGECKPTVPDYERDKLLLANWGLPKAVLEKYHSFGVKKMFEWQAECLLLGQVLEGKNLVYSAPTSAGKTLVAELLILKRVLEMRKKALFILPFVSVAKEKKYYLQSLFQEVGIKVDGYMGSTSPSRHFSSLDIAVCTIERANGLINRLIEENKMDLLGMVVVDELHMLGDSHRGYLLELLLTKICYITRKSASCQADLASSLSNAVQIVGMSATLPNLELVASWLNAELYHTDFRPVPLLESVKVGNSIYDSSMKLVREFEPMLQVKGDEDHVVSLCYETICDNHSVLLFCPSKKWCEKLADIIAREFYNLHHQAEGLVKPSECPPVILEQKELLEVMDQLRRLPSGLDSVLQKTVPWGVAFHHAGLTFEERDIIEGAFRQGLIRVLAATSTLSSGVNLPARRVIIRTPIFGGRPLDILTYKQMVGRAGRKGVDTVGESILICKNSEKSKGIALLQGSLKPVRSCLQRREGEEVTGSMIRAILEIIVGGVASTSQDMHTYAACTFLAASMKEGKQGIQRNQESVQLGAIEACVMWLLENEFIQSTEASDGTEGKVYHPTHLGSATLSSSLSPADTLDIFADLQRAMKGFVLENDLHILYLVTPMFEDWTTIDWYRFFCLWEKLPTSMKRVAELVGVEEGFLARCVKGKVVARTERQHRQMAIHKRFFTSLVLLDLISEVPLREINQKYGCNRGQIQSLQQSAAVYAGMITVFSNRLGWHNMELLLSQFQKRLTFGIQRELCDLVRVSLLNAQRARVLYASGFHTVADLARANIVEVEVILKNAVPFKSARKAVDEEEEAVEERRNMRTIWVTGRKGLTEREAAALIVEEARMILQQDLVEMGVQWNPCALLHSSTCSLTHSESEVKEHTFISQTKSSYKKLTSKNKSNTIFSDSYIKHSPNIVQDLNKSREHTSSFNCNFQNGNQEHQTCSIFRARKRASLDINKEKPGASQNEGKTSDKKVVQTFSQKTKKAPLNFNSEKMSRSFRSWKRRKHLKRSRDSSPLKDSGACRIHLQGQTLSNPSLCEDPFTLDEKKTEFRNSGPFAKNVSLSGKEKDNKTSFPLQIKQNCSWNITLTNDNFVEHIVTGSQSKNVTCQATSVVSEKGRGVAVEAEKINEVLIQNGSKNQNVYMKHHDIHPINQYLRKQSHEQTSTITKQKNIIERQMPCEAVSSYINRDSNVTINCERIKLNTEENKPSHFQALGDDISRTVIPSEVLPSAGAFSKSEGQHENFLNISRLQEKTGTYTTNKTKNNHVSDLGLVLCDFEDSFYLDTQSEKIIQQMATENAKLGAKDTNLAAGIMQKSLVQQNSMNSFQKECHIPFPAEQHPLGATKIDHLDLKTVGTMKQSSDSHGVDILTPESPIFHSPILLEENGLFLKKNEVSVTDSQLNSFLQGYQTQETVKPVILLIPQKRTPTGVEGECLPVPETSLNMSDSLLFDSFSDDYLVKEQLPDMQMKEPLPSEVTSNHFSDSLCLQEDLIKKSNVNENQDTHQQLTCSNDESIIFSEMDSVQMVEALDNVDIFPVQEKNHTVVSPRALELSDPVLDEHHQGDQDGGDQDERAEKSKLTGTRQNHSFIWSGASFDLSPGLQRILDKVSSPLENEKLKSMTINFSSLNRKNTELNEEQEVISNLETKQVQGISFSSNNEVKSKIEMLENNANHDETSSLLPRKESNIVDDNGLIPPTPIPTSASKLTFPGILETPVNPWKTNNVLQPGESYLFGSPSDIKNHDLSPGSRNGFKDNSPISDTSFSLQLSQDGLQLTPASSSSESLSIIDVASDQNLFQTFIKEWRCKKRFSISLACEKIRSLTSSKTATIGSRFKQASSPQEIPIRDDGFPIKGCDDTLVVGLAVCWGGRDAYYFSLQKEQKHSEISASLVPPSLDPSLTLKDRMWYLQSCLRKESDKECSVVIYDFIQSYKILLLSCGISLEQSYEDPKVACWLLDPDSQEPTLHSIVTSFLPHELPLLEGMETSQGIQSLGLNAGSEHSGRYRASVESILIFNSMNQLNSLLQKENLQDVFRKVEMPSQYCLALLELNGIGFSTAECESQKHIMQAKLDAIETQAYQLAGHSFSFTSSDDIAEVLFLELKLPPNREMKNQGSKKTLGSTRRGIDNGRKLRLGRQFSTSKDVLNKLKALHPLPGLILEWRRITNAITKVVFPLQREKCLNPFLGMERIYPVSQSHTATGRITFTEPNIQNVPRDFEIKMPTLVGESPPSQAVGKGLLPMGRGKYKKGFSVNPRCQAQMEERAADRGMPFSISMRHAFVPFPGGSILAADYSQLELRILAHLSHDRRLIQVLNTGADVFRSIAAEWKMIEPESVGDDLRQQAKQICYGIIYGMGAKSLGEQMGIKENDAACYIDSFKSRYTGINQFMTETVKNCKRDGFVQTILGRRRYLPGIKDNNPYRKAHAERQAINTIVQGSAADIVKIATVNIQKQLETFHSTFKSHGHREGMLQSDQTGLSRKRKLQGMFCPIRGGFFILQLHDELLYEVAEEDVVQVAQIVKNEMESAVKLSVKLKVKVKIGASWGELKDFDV
UniProt Q16539, sequence (whole entry, looked up): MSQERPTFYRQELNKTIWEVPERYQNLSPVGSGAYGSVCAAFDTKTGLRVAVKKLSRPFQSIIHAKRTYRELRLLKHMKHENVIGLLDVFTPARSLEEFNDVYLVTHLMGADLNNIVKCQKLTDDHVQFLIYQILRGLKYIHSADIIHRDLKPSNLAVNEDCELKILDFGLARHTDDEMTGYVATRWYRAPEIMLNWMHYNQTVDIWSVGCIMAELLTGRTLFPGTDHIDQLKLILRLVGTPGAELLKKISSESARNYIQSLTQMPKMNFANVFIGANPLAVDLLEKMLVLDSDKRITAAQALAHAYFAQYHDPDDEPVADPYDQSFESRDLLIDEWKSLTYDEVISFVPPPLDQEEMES
UniProt Q8IZL9, sequence (whole entry, looked up): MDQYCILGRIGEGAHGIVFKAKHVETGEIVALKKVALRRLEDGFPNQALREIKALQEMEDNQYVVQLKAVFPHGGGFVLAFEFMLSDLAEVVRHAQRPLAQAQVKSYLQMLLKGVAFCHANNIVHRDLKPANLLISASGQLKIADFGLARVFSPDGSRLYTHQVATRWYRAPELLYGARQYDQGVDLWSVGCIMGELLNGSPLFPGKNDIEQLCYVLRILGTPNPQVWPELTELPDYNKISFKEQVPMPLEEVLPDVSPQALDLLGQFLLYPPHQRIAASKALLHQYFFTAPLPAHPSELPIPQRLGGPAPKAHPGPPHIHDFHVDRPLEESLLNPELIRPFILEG

Structure (SMILES) | tested on | test | test system | setting | scale | measurement | value
O=C(Nc1nncs1)c1cccc([C@@H]2C[C@H]2NC2CCC2)c1 | KDM1A | demethylase activity, inhibitor, Amplex Red | – | 0.6667 µM, together with: H3K4me2 peptide | reference: vehicle | remaining activity | 46.1%
CC(C)[C@@H]1NC(=O)[C@H](Cc2ccccc2)NC(=O)CSC[C@@H](C(N)=O)NC(=O)[C@H](CCC(=O)O)NC(=O)[C@H](CO)NC(=O)[C@H](Cc2c[nH]c3cccc(Cl)c23)NC(=O)[C@H](C2CCCCC2)NC(=O)[C@H](C(C)C)NC(=O)[C@H](Cc2ccc(O)cc2)NC(=O)[C@H](CC(=O)O)NC(=O)[C@H](Cc2c[nH]c3ccccc23)NC(=O)[C@H](Cc2ccc(N)nc2)NC(=O)[C@H](Cc2c[nH]c3ccc(Cl)cc23)NC(=O)[C@H](CCC(=O)O)NC1=O | Interleukin-1 receptor-like 2 (IL1RL2, Homo sapiens, UniProt Q9HB29) | reporter gene (SEAP), inhibitor, HEK-Blue IL-36R reporter | HEK-Blue IL-36R cells | 33.33 µM, 6 h, together with: IL-36γ 100 ng/mL | – | remaining activity | 76.6%
C=C(NC(=O)c1csc(-c2nc3c(cc2O)-c2nc(cs2)C(=O)NC(C(C)O)C(=O)NC(=C(C)OC)c2nc(cs2)C(=O)NC2c4nc(cs4)C(=O)NC(COC(=O)c4c5c6c(cccc6n4O)COC(=O)C(OC4CC(C)(O)C(N(C)C)C(C)O4)C2OC5)c2nc-3cs2)n1)C(N)=O (stereo not shown) | – | – | Sprague-Dawley rat, female, plasma | intravenous infusion, 6 mg/kg, multiple doses, day 7 | – | Vz/F | 37300 mL/kg
CCCC[C@H](NC(=O)CCCCCCCNC(=O)CN1CCN(CC(=O)O)CCN(CC(=O)O)CC1)C(=O)N[C@H]1CC(=O)NCCCC[C@@H](C(N)=O)NC(=O)[C@H](Cc2c[nH]c3ccccc23)NC(=O)[C@H](CCCNC(=N)N)NC(=O)[C@@H](Cc2ccccc2)NC(=O)[C@H](Cc2c[nH]cn2)NC1=O [technetium-99m labelled] | – | – | C57 mouse, lung | intravenous, 0.037 MBq, 24 h | – | tissue uptake | 0.06 ± 0.07 %ID/g
COC1CN([C@H]2CC[C@H]([C@@]3(C)Oc4c(Cl)cc(C(=O)NCc5c(SC)cc(C)[nH]c5=O)c(C)c4O3)CC2)C1 | – | RNA-seq, measured: TMEM37 mouse homolog | mouse, HT-1376 xenograft, whole blood | dose not given | reference: vehicle | log2 fold change | 0.0103
CNC(=O)c1cccc([C@@H]2C[C@H]2NC2CCC2)c1 (racemic) | KDM1A | demethylase activity, inhibitor | – | 5.556 µM, together with: H3K4me2 peptide | – | remaining activity | 81%
Nc1ncc(-c2cc(-c3cnn(CC(F)(F)F)c3)ncc2F)nc1C(=O)NC1CNCC(F)C1 (stereo not shown) | PIM2 | KINOMEscan | – | 1 µM | reference: DMSO control | remaining binding | 100%
CN1CCCNC(=O)c2cccc(c2)C(=O)NCCCN(C)CCCNc2cccc3c2C(=O)c2cccc(c2C3=O)NCCC1 | SAS | RNA-Seq, measured: MEAF6 mRNA | – | 1 µM, 6 h | reference: untreated cells | log2 fold change | -0.488
O=C1CC(c2ccccc2)N1S(=O)(=O)c1ccc(Cl)cc1 (stereo not shown) | Rhomboid protease AarA | substrate cleavage, gel-based | – | 100 µM | reference: DMSO | remaining activity | 76%
CN(Cc1cc(C2CC2)on1)C(=O)c1cccc(-c2ccc3c(c2)CCO3)c1 | Acetyl-CoA synthetase (Cryptococcus neoformans, UniProt J9VFT1) | enzyme activity, inhibitor, coupled pyrophosphate | – | 6.25 µM | – | remaining activity | 101% and 95.4%
COC(=O)[C@@]1(C)C=C(C(=O)Nc2cccc(C(=O)Nc3ccc(Nc4nccc(-c5cccnc5)n4)c(C)c3)c2)C(=O)CC1 | Mitogen-activated protein kinase 14 (MAPK14, Homo sapiens, UniProt Q16539) | kinase activity, inhibitor | – | 0.5487 µM, unit not given | reference: no inhibitor | remaining activity | 1.09
O=C(c1cccc(-c2cc(NCCO)ncn2)c1)N1CCCC1c1ccccc1 (stereo not shown) | ung (Escherichia coli, UniProt P12295) | enzyme activity, inhibitor | – | concentration not given, counter-screen | – | remaining activity | 110 ± 5%
COc1ccccc1-c1ccncc1C(=O)Nc1ccc(OCc2ccc(Cl)cc2)nn1 | DNA polymerase theta, helicase domain (POLQ, Homo sapiens, UniProt O75417) | ATPase activity, ADP-Glo | – | 0.12 µM | reference: 0 µM cpd | remaining activity | 104%
CN1C[C@@H](c2c[nH]c3cc(Br)ccc23)NC[C@@H]1c1c[nH]c2cc(Br)ccc12 | Cyclin-dependent kinase 20, with cyclin T1 (CDK20, Homo sapiens, UniProt Q8IZL9) | enzyme activity, inhibitor | – | 10 µM | – | remaining activity | 102%
COc1cc(Nc2nc(C)cc(-c3cnn4nc(OC)ccc34)n2)cc(C(F)(F)F)c1 | Mast/stem cell growth factor receptor Kit (KIT, Homo sapiens, UniProt P10721, T670I/V559D) | inhibitor | – | 1 µM | reference: control | remaining activity | 85%
Cc1nnc(NC(=O)c2cc([C@@H]3C[C@H]3NC3CCC3)ccc2Br)s1 (relative stereo) | KDM1A | demethylase activity, inhibitor, Amplex Red | – | 2.222 µM, together with: H3K4me2 peptide | reference: vehicle | remaining activity | 57.3%
O=C1CC(c2ccccc2)N1S(=O)(=O)c1cccc(-c2ccccc2)c1 (stereo not shown) | Rhomboid protease AarA | enzyme activity, inhibitor | – | 100 µM | – | remaining activity | 50%
O=C(Nc1ccccc1)c1cccc([C@@H]2C[C@H]2NC2CCC2)c1 (racemic) | KDM1A | demethylase activity, inhibitor, Amplex Red | – | 0.0009145 µM, together with: H3K4me2 peptide | reference: vehicle | remaining activity | 106%
C=CC(=O)Nc1cccc(Cn2ncc3cnc(Nc4cnn(CCOC)c4)nc32)c1 | NEK1 human | binding, KINOMEscan | – | 100 nM | lower = stronger binding | percent of control | 100%

For quick reference, copied from above:
Structure (SMILES) | tested on | test | test system | setting | scale | measurement | value
COc1ccccc1-c1ccncc1C(=O)Nc1ccc(OCc2ccc(Cl)cc2)nn1 | DNA polymerase theta, helicase domain (POLQ, Homo sapiens, UniProt O75417) | ATPase activity, ADP-Glo | – | 0.12 µM | reference: 0 µM cpd | remaining activity | 104%
CN1C[C@@H](c2c[nH]c3cc(Br)ccc23)NC[C@@H]1c1c[nH]c2cc(Br)ccc12 | Cyclin-dependent kinase 20, with cyclin T1 (CDK20, Homo sapiens, UniProt Q8IZL9) | enzyme activity, inhibitor | – | 10 µM | – | remaining activity | 102%
